Experimental data pooled from the literature.
Compare with care: the assays were run in different laboratories. ± marks the error that the study gave. Converted amounts (≈) assume the structure as drawn.

SMILES | organism | test | test system | conditions | scale | endpoint | result
CC[C@H](C)[C@H](NC(=O)[C@H](CO)NC(=O)[C@H](CO)NC(=O)[C@H](Cc1ccccc1)NC(=O)CN)C(=O)N[C@@H](Cc1ccccc1)C(=O)N[C@@H](CCCNC(=N)N)C(N)=O | Escherichia coli | – | ATCC 8739 | 10% FBS | – | MBC | > 128 µM
C[C@@H]1C[C@H](Nc2ccccc2)c2cc(F)ccc2N1C(=O)c1ccc(F)cc1 | Aedes albopictus | – | – | 1 µM, 72 h, second-instar larvae | baseline: Abbott-corrected control | mortality | 27 ± 11%
CCCCc1ccc(-c2nc(C)c(C(C)=NNC(=N)N)s2)cc1 | Staphylococcus aureus | – | USA500 MRSA | – | – | MBC | 1.3 µg/mL
CCCCCCCCCC(=O)OCC1OC(n2cc(C)c(=O)[nH]c2=O)CC1N(C)C (centres unmarked) | coxsackievirus B4 | viral replication | HeLa | – | – | EC50 | > 230 nM
CC[C@H](C)[C@H](NC(=O)[C@H](CCCNC(=N)N)NC(=O)[C@@H]1CCCN1C(=O)[C@@H](NC(=O)[C@H](CO)NC(=O)[C@H](CCCCN)NC(=O)[C@H](CO)NC(=O)[C@H](CCC(N)=O)NC(=O)[C@H](CCCCN)NC(=O)[C@H](CC(C)C)NC(=O)[C@H](Cc1ccccc1)NC(=O)[C@H](Cc1ccccc1)NC(=O)[C@H](CC(N)=O)NC(=O)[C@H](CCC(=O)O)NC(=O)[C@H](Cc1ccccc1)NC(=O)[C@H](CC(=O)O)NC(=O)CN)C(C)C)C(N)=O | Aedes aegypti | agonist | pharate pupae | intra-abdominal injection, 10 fmol, 9-12 h before ecdysis | – | latency to ecdysis contractions | 8 to 9 min
CC[C@H](C)CCCCC(=O)N[C@@H](CCN)C(=O)N[C@H](C(=O)N[C@@H](CCN)C(=O)N[C@H]1CCNC(=O)[C@H]([C@@H](C)O)NC(=O)[C@H](CCN)NC(=O)[C@H](CCN)NC(=O)[C@H](CC(C)C)NC(=O)[C@@H](Cc2ccccc2)NC(=O)[C@H](CCN)NC1=O)[C@@H](C)O | lipopolysaccharide | – | C57BL/6 mouse, LPS endotoxemia | intravenous, 5 mg/kg, dosed 2 h after LPS, together with: LPS 20 mg/kg intraperitoneal | – | survival | 0%
CS(=O)(=O)c1ccc(/C=N/NC(=O)Cn2ccc(=O)c3ccccc32)cc1 | Tobacco mosaic virus | viral infectivity, in vivo plant | – | 100 µg/mL | – | inactivation activity | 7 ± 1.9%
Nc1ccn(C[C@@H](CO)OCP(=O)(O)OCCCS(=O)(=O)CCCCCCCCCCCCC2CCC2)c(=O)n1 | human gammaherpesvirus 8 | qPCR | BCBL-1 | – | baseline: CC50 over EC50 | selectivity index | 35
CC[C@@H](C)[C@@H](NC(=O)[C@@H](C)NC(=O)[C@@H](CCCCN)NC(=O)[C@@H](CC(C)C)NC(=O)[C@@H](C)NC(=O)[C@H](NC(=O)[C@@H](Cc1c[nH]cn1)NC(=O)[C@@H](CC(C)C)NC(=O)[C@H](NC(=O)[C@H](NC(=O)[C@@H](CCCCN)NC(=O)[C@@H](CCCCN)NC(=O)[C@@H](C)NC(=O)[C@@H](CO)NC(=O)[C@@H](CCCCN)NC(=O)[C@@H](Cc1ccccc1)NC(=O)[C@H](NC(=O)[C@@H](CCCCN)NC(=O)[C@@H](CC(C)C)NC(=O)[C@@H](Cc1ccccc1)NC(=O)[C@@H](CO)NC(=O)[C@@H](CCCCN)NC(=O)[C@@H](Cc1c[nH]c2ccccc12)NC(=O)[C@@H](CCCCN)NC(C)=O)[C@H](C)O)[C@H](C)O)C(C)C)[C@H](C)O)C(=O)N[C@H](CO)C(=O)N[C@H](CO)C(N)=O | Scedosporium prolificans | – | clinical isolate | 48 h, 30 °C | – | MIC50 | 50 µg/mL
Nc1ncnc2c1c(F)cn2[C@@H]1O[C@H](CO)[C@@H](O)[C@H]1O | Trypanosoma congolense | parasite growth, resazurin | 6C3 diminazene-resistant | 48 h plus 24 h resazurin | – | EC50 | 780 ± 100 nM
O=[N+]([O-])c1ccc(/C=N/N=C/c2ccc(OCc3ccccc3)cc2)o1 | Trypanosoma congolense | – | IL3000, mouse | oral, 100 mg/kg daily for 7 days, from day 4 post-infection | – | day of death | 10 days post-infection
C[C@@H]1C[C@H](Nc2ccccc2)c2cc(F)ccc2N1C(=O)c1ccc(C#N)c(F)c1 | Aedes albopictus | – | – | 1 µM, 72 h, second-instar larvae | baseline: Abbott-corrected control | mortality | 95%
O=C(Nc1ccccc1Nc1ccccc1)c1cccnc1Cl | Valsa mali | mycelial growth, mycelial growth rate method | – | 50 mg/L | – | inhibition | 3.41%
O=C(Cc1csc2nc(-c3ccc(Br)cc3)cn12)NN=C1CCCC1 | Parainfluenza-3 virus | viral cytopathicity, microscopy | Vero | – | – | EC50 | > 100 µg/mL
COc1ccc(-n2c(SCCCN3CCOCC3)nnc2[C@H](Cc2ccccc2)NC(=O)Cc2c(C)[nH]c3ccccc23)cc1 | HIV-2 | – | MT-4, wild type | – | baseline: CC50 over EC50 | selectivity index | 13
C[C@@](O)(C(F)F)[C@H](NC(=O)c1ccc(C#CC#CC2CC2)cc1)C(=O)NO | Enterobacteriaceae | – | ESBL, carbapenemase positive | – | – | MIC90 | 0.125 µg/mL (≈ 0.332 µM)
CCn1c2ccccc2c2cc(/C=N/NC(=O)Cn3ccc(=O)c4ccccc43)ccc21 | Tobacco mosaic virus | viral infectivity, in vivo plant | – | 500 µg/mL | – | inactivation activity | 35.2 ± 4.8%
OC[C@H]1O[C@@H](SSCc2ccc(CSS[C@@H]3O[C@H](CO)[C@H](O)[C@H](O)[C@H]3O)c3ccccc23)[C@H](O)[C@@H](O)[C@H]1O | Trypanosoma brucei | parasite growth, flow cytometry | – | 5 µM, 24 h | – | viability | 88.4%
NNC(=O)/C=C/c1ccc(N)cc1 | Aedes aegypti | larvicidal activity | third instar larvae | 72 h | – | LC90 | 208 ppm
CCCCc1ccc(C(=O)N2c3ccc(F)cc3[C@@H](Nc3ccccc3)C[C@H]2C)cc1 | Aedes albopictus | – | – | 1 µM, 72 h, second-instar larvae | baseline: Abbott-corrected control | mortality | 32 ± 5%
CC[C@@H](C)[C@@H](NC(=O)[C@@H](C)NC(=O)[C@@H](CCCCN)NC(=O)[C@@H](CC(C)C)NC(=O)[C@@H](C)NC(=O)[C@H](NC(=O)[C@@H](Cc1c[nH]cn1)NC(=O)[C@@H](CC(C)C)NC(=O)[C@H](NC(=O)[C@H](NC(=O)[C@@H](CCCCN)NC(=O)[C@@H](CCCCN)NC(=O)[C@@H](C)NC(=O)[C@@H](CO)NC(=O)[C@@H](CCCCN)NC(=O)[C@@H](Cc1ccccc1)NC(=O)[C@H](NC(=O)[C@@H](CCCCN)NC(=O)[C@@H](CC(C)C)NC(=O)[C@@H](Cc1ccccc1)NC(=O)[C@@H](CO)NC(=O)[C@@H](CCCCN)NC(=O)[C@@H](Cc1c[nH]c2ccccc12)NC(=O)[C@@H](CCCCN)NC(C)=O)[C@H](C)O)[C@H](C)O)C(C)C)[C@H](C)O)C(=O)N[C@H](CO)C(=O)N[C@H](CO)C(N)=O | Acinetobacter baumannii | – | 11 isolates | – | – | MIC geometric mean | 1.1 µM (≈ 3.29 µg/mL)
COc1cc(/C=C/c2ccc(OC)c(O)c2)cc(OC)c1 | Streptococcus mutans | microbial growth | – | – | – | MIC50 | 137 µM
CC[C@H](C)[C@H](NC(=O)[C@H](CCCCN)NC(=O)[C@H](CCCCN)NC(=O)[C@H](CC(C)C)NC(=O)[C@H](CCCCN)NC(=O)[C@H](CCC(=O)O)NC(=O)[C@H](CCCCN)NC(=O)[C@@H](NC(=O)[C@H](CCCCN)NC(=O)[C@H](CC(N)=O)NC(=O)[C@H](CCCNC(=N)N)NC(=O)[C@H](Cc1ccccc1)NC(=O)[C@H](CCCCN)NC(=O)[C@H](CCCNC(=N)N)NC(=O)[C@H](CC(C)C)NC(=O)[C@H](CCCNC(=N)N)NC(=O)[C@H](CCCCN)NC(=O)[C@H](CCCNC(=N)N)NC(=O)[C@H](CC(C)C)NC(=O)[C@@H](N)CC(C)C)[C@@H](C)CC)C(=O)NCC(=O)N[C@@H](CCC(N)=O)C(=O)N[C@@H](CCCCN)C(=O)N[C@H](C(=O)N[C@@H](CCC(N)=O)C(=O)NCC(=O)N[C@@H](Cc1ccccc1)C(=O)N[C@H](C(=O)N1CCC[C@H]1C(=O)N[C@@H](CCCCN)C(=O)N[C@@H](CC(C)C)C(=O)N[C@H](C(=O)N1CCC[C@H]1C(=O)N[C@@H](CCCNC(=N)N)C(=O)N[C@H](C(=O)N[C@@H](CCC(=O)O)C(=O)N[C@@H](CO)C(=O)O)[C@@H](C)O)C(C)C)C(C)C)[C@@H](C)CC | Streptomyces scabiei | inhibition zone | CGMCC 4.176 | LB agar, overnight | – | lethal concentration | 8.93 µM

For quick reference, copied from above:
SMILES | organism | test | test system | conditions | scale | endpoint | result
COc1cc(/C=C/c2ccc(OC)c(O)c2)cc(OC)c1 | Streptococcus mutans | microbial growth | – | – | – | MIC50 | 137 µM
